Results gathered from unrelated publications.
Protocols differ between the studies behind these lines. Numbers after ± are the reported error. In brackets after ≈: the same amount, converted by molar mass.
Organism: Escherichia coli

Compound | test | system | conditions | how to read | measurement | result
CC[C@H](C)CCCCC(=O)N[C@@H](CCN)C(=O)N[C@H](C(=O)N[C@@H](CCN)C(=O)N[C@H]1CCNC(=O)[C@H]([C@@H](C)O)NC(=O)[C@H](CCN)NC(=O)[C@H](CCN)NC(=O)[C@H](CC(C)C)NC(=O)[C@@H](CC(C)C)NC(=O)[C@H](CCN)NC1=O)[C@@H](C)O | daily serial passaging | ATCC 8739 | highest sub-MIC, 34 days | relative to: initial MIC | MIC fold change | 1.74
O=C(O)c1ncsc1-c1ccccc1 | – | DH5α with VIM-2 plasmid | 100 µg/mL, added: meropenem | – | MIC of meropenem | 0.25 µg/mL
C[n+]1nn(CCCCCCCCN2C(=O)C=CC2=O)cc1COCCCCCCCCN1C(=O)C=CC1=O | growth, turbidity OD600 | ΔtolC | 24 h | – | IC50 | > 100 µM
CC(C)C[C@@H]1NC(=O)[C@H](CCCNC(=N)N)NC(=O)[C@H](CCCNC(=N)N)NC(=O)[C@@H](NC(=O)[C@@H](N)CCC(=O)O)CSSC[C@@H](C(=O)N[C@@H](CCCNC(=N)N)C(=O)NCC(=O)N[C@@H](CCCNC(=N)N)C(N)=O)NC(=O)[C@H](Cc2ccc(O)cc2)NC(=O)[C@H]([C@@H](C)O)NC(=O)[C@H](C(C)C)NC(=O)[C@H](Cc2c[nH]c3ccccc23)NC(=O)[C@H](CCCNC(=N)N)NC(=O)CNC(=O)[C@H](CCCCN)NC(=O)[C@H](Cc2ccc(O)cc2)NC(=O)[C@H](Cc2c[nH]c3ccccc23)NC1=O | bacterial growth | DH5α | 50% growth inhibition | – | IC50 | 72 µM
CC[C@H](C)[C@H](NC(=O)[C@H](Cc1c[nH]c2ccccc12)NC(=O)c1ccccc1)C(=O)N[C@@H](CCCNC(=N)N)C(=O)N[C@@H](Cc1ccc(O)cc1)C(=O)N[C@@H](CCCCN)C(=O)N[C@@H](Cc1c[nH]c2ccccc12)C(=O)N1CCC[C@@H]1C(=O)N[C@@H](CCCNC(=N)N)C(=O)N[C@@H](CCCCN)C(=O)N[C@@H](CCCCN)C(=O)N[C@H](C(=O)N[C@@H](CCCNC(=N)N)C(=O)N[C@@H](Cc1ccc(O)cc1)C(=O)N[C@@H](Cc1c[nH]c2ccccc12)C(=O)N[C@H](C(=O)NCC(=O)N1CCC[C@H]1C(N)=O)[C@@H](C)O)C(C)C | growth | DH5α | 16 h, 37 °C | – | IC50 | 45 µM
C[n+]1nn(CCCCCCN2C(=O)C=CC2=O)cc1COCCCCCCN1C(=O)C=CC1=O | growth, turbidity OD600 | ΔtolC | 24 h | – | IC50 | > 100 µM
CC[C@H](C)[C@H](NC(=O)CNC(=O)[C@H](CCCCN)NC(=O)[C@@H](NC(=O)[C@H](Cc1c[nH]c2ccccc12)NC(=O)[C@H](CCCCN)NC(=O)[C@H](Cc1ccccc1)NC(=O)[C@@H](NC(=O)[C@H](CCCCN)NC(=O)[C@H](CCCCN)NC(=O)[C@@H](NC(=O)[C@H](Cc1c[nH]c2ccccc12)NC(=O)[C@H](Cc1c[nH]c2ccccc12)NC(=O)[C@@H](N)CCCCN)[C@@H](C)CC)C(C)C)[C@@H](C)CC)C(=O)NCC(=O)N[C@@H](CCCCN)C(=O)N[C@@H](CCC(=O)O)C(=O)N[C@H](C(=O)N[C@H](C(=O)N[C@H](C(=O)N[C@@H](CCCNC(=N)N)C(=O)N[C@H](C(=O)NCC(=O)N[C@H](C(=O)N[C@@H](CCC(=O)O)C(=O)N[C@H](C(=O)N[C@@H](C)C(=O)N[C@@H](C)C(=O)N[C@@H](CS)C(=O)N[C@@H](CCCCN)C(=O)N[C@H](C(=O)N[C@@H](CCCCN)C(=O)NCC(=O)N[C@@H](CCC(=O)O)C(=O)N[C@@H](CS)C(N)=O)[C@@H](C)CC)[C@@H](C)CC)[C@@H](C)CC)[C@@H](C)O)[C@@H](C)CC)C(C)C)C(C)C | colony count | PBS | 20 µg/mL, 2 h | – | bactericidal rate | 100%
CCOC(=O)C1(Cc2ccccc2)Oc2cc(F)ccc2N(Cc2ccccc2)C1=O (stereo not drawn) | – | BL21(DE3) | 100 µM | – | growth inhibition | no inhibition
CC1(C)C(NC(=O)C(=NOC2(C(=O)O)CC2)c2csc(N)n2)C(=O)N1OS(=O)(=O)O (stereo not drawn) | – | ATCC 2469 NDM-1, ICR mouse systemic infection | intravenous | – | ED50 | 8.65 mg/kg
COc1c(NC(=O)c2ccc(NC(=O)[C@H](CC#N)NC(=O)c3ccc(NC(=O)/C(C)=C/c4ccc(O)cc4)cc3)c(OC)c2O)ccc(C(=O)Nc2ccc(C(=O)O)cc2)c1O | – | clones expressing hydrolases | concentration not given | relative to: empty vector | MIC fold change | 4 fold
CN(C)S(=O)(=O)c1ccc(S(=O)(=O)N2CCC(n3c(=O)[nH]c4ccccc43)CC2)cc1 | – | Keio wild type | concentration not given, 120 h | – | streptomycin concentration | 7.84 µg/mL
CC(C)C[C@H](NC(=O)[C@H](CCN)NC(=O)[C@H](CCN)NC(=O)[C@@H](Cc1ccccc1)NC(=O)[C@H](CC(C)C)NC(=O)[C@H](CCN)NC(=O)[C@H](CCN)NC(=O)[C@@H](CCN)NC(=O)CCSCCOC(=O)c1ccccc1)C(N)=O | – | ATCC 10546 | 24 h, 37 °C | – | MBC | 16 µM (≈ 18 µg/mL)
C=CS(=O)(=O)NCCCCOCc1cn(CCCCNS(=O)(=O)C=C)n[n+]1C | growth, turbidity OD600 | ΔtolC | 24 h | – | IC50 | > 100 µM
C[C@@H](N)[C@H](O)CCCCCCCC(=O)CCCCCCCCCCCCCC[C@@H](O[C@@H]1O[C@H](CO)[C@H](O)[C@H](O)[C@H]1O)[C@H](N)CO | microbial growth, resazurin | ATCC10536 | 50 µM | – | inhibition | 96%
C#CCN1C(=O)C(CC#C)(C(=O)OCC)Oc2ccccc21 (stereo not drawn) | – | BL21(DE3) | 100 µM | – | growth inhibition | no inhibition
C=CC(=O)NCCCCOCc1cn(CCCCNC(=O)C=C)nn1 | growth, turbidity OD600 | ΔtolC | 24 h | – | IC50 | > 100 µM
C#CCCCC(=O)N[C@H]1CCOC1=O | LuxR reporter bioluminescence, antagonist | DH5α sensor strain | 200 µM, added: OHHL 200 nM | – | inhibition | 29 ± 3%
C=CC(=O)NCCCCCCCCCCOCc1cn(CCCCCCCCCCNC(=O)C=C)n[n+]1C | growth, turbidity OD600 | ΔtolC | 24 h | – | IC50 | 13.7 ± 1.8 µM
CCCCCCCCCC(=O)OCCSC[C@H](N)C(=O)N[C@H](CCN)C(=O)N[C@@H](CCN)C(=O)N[C@@H](CCN)C(=O)N[C@@H](CC(C)C)C(=O)N[C@H](Cc1ccccc1)C(=O)N[C@@H](CCN)C(=O)N[C@@H](CCN)C(=O)N[C@@H](CC(C)C)C(N)=O | – | ATCC 10546 | 24 h, 37 °C | – | MBC | 32 µM (≈ 38.2 µg/mL)
O=C1C=CC(=O)N1CCCCCCCCOCc1cn(CCCCCCCCN2C(=O)C=CC2=O)nn1 | growth, turbidity OD600 | ΔtolC | 24 h | – | IC50 | > 100 µM
COc1ccc(CC2[NH2+]CCc3cc(OC)c(OC)cc32)cc1OC.[Cl][Fe-]([Cl])([Cl])[Cl] (stereo not drawn) | – | – | 24 h, 37 °C | – | MIC50 | 927 µM

Some of these lines once more:
Compound | test | system | conditions | how to read | measurement | result
O=C1C=CC(=O)N1CCCCCCCCOCc1cn(CCCCCCCCN2C(=O)C=CC2=O)nn1 | growth, turbidity OD600 | ΔtolC | 24 h | – | IC50 | > 100 µM
